# Results from different studies.
# Protocols differ between the studies behind these lines. Values joined by “and” are separate records of one study, mostly repeats; a detail may differ.
# Target: TGF-beta receptor type-1 (TGFBR1, Homo sapiens, UniProt P36897)
Compound,test,system,conditions,scale,measurement,result
COc1c(Cl)cccc1Nc1c(-c2ccncc2C#C[C@@]2(C)CCCN2C(=O)/C=C/CN(C)C)[nH]c2c1C(=O)NCC2,"cell-free assay, competition with immobilised ligand",,3 µM,,remaining binding,89%
COc1ccc(O)cc1-c1c[nH]c2ncc(-c3cncc(C(=O)N(C)C)c3)cc12,"binding, competition with immobilised ligand",,0.2 µM,,inhibition,16.6%
COc1ccc(NC(=O)Nc2ccc3c(c2)C(=O)N(C(C)CO)CC(C)C(CN(C)Cc2ccc4c(c2)OCO4)O3)cc1 (centres unmarked),"kinase activity, KinaseProfiler",,"0.03 µM, species human",relative to: control,remaining activity,101%
COc1cc(Nc2nccc(-c3cnn4nc(OC)ccc34)n2)cc(C(F)(F)F)c1,"binding, competition with immobilised ligand",,1 µM,,remaining binding,82%
NC(=O)[C@@H](O)C[C@H]1CCc2sc3ncnc(O[C@H]4CC[C@H](N5CCOCC5)CC4)c3c21,"enzyme activity, inhibitor",,10 µM,,inhibition,-5%
Nc1ncc(-c2cc(-c3cnn(CC(F)(F)F)c3)ncc2F)nc1C(=O)NC1CNCC(F)C1 (centres unmarked),enzyme activity,,1 µM,relative to: DMSO control,remaining activity,106%
N[C@H]1CC[C@H](Nc2nccc(-c3cccnc3Oc3ccc(NC(=O)NC4CC4)c4ccccc34)n2)CC1,kinobead competition pulldown,HEK293/HCT116 lysate mixture,"10 µM, 1 h, 4 °C",lower = stronger competition,log2 LFQ intensity,25.2 and 25.1
CCN1CCN(Cc2ccc(C(=O)Nc3ccc(C)c(NCc4cnc5[nH]ccc5c4OC)c3)cc2C(F)(F)F)CC1,"binding, competition with immobilised ligand",,1 µM,,remaining binding,100%
C=C1CCCCCCCCCC(CO)C1=O (centres unmarked),cell-free assay,,10 µM,,remaining signal,100%
CC(C)=CC1OC(C)(C)C2C=C3C(=O)C(Cl)=CC(O)C3C3C(O)C4OC4C(=O)C132 (centres unmarked),"cell-free assay, competition with immobilised ligand",,10 µM,,remaining binding,80%
C=CC(=O)N1CCc2ccc(-n3c(=O)ccc4cnc5ccc(-c6cnn(C)c6)cc5c43)cc21,KINOMEscan,,1 µM,relative to: DMSO control,remaining binding,96%
CN1CC[C@@H](COc2cnc(C#N)cc2-c2ccn3nc(NC(=O)C4CC4)cc3c2)C1,"enzyme activity, inhibitor",,1 µM,,inhibition,9%
CC(=O)N1c2ccc(-c3ccc(CNC(=O)c4cn5cc(-c6cnc(N)nc6)nc(N6CCOCC6)c5n4)cc3)cc2CC[C@@H]1C,KINOMEscan,,10 µM,,remaining binding,99%
CCN1CCN(Cc2ccc(NC(=O)c3ccc(C)c(NC(=O)c4cncc(-c5cnn(C)c5)c4)c3)cc2C(F)(F)F)CC1,"binding, competition with immobilised ligand",,1 µM,,remaining binding,91%
O=C(Cc1ccc(OCc2ccccc2)cc1)NC1(C(=O)O)CCN(C(=O)c2ccc(-c3cccc(Cl)c3)cc2)CC1,"enzyme activity, inhibitor",,10 µM,,activity vs control,102%
Cc1ccc(C(=O)Nc2ccc(CN3CCN(C)CC3)c(C(F)(F)F)c2)cc1C#Cc1cnc2cccnn12,"target engagement, NanoBRET",human cells,,,Hill slope,-0.413
CN1CCN(Cc2ccc(NC(=O)c3cccc(C#Cc4cnc(N)c5ncccc45)c3)cc2C(F)(F)F)CC1,"cell-free assay, competition with immobilised ligand",,0.5 µM,,remaining binding,100%

# Some of these lines once more:
Compound,test,system,conditions,scale,measurement,result
COc1ccc(NC(=O)Nc2ccc3c(c2)C(=O)N(C(C)CO)CC(C)C(CN(C)Cc2ccc4c(c2)OCO4)O3)cc1 (centres unmarked),"kinase activity, KinaseProfiler",,"0.03 µM, species human",relative to: control,remaining activity,101%
COc1cc(Nc2nccc(-c3cnn4nc(OC)ccc34)n2)cc(C(F)(F)F)c1,"binding, competition with immobilised ligand",,1 µM,,remaining binding,82%
